Measurements pooled from the literature.
Numbered parts are unrelated; each lists some results of a single study. Substitutions count along the parent as printed.
UniProt P78368, sequence (whole entry, looked up): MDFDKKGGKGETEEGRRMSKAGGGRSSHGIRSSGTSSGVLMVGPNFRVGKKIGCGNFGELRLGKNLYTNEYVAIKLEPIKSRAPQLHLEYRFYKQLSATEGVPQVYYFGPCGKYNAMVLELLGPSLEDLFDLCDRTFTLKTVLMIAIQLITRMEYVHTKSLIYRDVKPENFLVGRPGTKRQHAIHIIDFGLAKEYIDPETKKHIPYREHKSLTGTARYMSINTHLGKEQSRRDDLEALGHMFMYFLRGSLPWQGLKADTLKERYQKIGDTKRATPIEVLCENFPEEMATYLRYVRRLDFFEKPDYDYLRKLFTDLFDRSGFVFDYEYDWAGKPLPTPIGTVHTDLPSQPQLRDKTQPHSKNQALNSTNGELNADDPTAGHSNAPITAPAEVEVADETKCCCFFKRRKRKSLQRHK
UniProt Q15349, sequence (whole entry, looked up): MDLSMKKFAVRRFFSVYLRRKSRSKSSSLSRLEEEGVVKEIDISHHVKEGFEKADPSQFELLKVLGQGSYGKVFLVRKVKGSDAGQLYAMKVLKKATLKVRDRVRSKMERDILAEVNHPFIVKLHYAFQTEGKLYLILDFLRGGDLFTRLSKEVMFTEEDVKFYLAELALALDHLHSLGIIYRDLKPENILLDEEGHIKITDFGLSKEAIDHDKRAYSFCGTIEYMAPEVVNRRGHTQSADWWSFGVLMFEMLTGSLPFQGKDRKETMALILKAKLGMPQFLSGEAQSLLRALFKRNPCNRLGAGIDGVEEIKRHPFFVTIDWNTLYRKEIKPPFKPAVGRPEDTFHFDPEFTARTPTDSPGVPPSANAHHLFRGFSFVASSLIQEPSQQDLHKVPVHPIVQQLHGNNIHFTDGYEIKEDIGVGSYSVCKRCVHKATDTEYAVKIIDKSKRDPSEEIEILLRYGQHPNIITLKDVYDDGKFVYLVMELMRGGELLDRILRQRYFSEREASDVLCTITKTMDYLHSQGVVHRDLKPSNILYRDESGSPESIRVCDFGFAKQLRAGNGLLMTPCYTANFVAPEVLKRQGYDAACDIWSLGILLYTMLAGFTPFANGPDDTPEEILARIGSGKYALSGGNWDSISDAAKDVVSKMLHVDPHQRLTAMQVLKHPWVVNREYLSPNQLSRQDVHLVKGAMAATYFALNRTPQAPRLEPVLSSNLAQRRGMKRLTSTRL
UniProt P06239, sequence (whole entry, looked up): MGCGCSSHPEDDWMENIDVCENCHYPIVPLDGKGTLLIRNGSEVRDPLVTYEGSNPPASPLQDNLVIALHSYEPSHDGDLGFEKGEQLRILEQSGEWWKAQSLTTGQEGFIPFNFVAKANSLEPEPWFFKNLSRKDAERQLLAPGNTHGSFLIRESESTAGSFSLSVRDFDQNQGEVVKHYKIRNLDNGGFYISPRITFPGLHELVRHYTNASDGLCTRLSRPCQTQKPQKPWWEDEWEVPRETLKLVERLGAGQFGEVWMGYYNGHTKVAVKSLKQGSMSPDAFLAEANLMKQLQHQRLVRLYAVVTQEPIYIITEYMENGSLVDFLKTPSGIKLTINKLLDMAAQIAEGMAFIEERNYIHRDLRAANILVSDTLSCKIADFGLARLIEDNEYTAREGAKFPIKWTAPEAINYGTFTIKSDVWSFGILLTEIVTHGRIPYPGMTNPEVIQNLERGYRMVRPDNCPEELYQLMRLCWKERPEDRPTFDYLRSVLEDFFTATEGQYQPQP
UniProt Q04912, sequence (whole entry, looked up): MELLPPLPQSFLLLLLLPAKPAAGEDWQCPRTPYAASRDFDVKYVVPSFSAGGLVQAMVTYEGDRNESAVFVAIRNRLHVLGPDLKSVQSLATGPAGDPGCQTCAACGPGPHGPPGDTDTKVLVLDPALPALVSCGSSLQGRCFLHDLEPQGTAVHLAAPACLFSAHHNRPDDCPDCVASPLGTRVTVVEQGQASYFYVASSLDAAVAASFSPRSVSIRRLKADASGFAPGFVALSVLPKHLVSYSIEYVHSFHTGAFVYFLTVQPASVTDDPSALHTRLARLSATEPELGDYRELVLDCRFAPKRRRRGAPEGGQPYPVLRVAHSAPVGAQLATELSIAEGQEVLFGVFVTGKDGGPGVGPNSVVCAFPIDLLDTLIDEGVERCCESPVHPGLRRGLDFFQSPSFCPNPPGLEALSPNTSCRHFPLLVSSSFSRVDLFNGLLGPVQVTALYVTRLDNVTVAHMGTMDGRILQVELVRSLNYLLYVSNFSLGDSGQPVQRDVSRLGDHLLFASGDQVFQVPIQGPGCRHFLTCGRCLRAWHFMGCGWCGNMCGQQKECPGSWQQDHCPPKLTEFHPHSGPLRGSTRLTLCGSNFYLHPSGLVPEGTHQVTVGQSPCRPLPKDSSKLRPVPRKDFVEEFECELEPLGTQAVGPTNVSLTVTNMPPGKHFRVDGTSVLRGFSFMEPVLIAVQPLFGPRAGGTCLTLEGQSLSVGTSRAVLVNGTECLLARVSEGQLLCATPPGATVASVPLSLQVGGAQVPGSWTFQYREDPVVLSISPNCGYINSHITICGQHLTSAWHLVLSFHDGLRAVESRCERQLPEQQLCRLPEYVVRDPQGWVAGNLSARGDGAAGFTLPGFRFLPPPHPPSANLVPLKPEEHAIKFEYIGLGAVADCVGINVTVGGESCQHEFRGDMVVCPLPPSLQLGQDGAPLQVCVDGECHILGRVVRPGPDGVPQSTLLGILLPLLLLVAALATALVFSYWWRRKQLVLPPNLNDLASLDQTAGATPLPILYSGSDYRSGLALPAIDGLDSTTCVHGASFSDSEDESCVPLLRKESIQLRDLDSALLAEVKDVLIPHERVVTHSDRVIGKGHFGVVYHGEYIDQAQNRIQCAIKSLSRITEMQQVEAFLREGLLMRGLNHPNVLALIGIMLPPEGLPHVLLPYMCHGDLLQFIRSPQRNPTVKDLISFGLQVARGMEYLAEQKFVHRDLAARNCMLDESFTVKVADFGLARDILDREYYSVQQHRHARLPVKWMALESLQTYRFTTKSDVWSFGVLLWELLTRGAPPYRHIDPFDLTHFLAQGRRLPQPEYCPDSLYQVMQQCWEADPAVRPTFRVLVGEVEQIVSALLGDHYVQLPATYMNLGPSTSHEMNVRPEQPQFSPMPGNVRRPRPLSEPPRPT
UniProt P36896, sequence (whole entry, looked up): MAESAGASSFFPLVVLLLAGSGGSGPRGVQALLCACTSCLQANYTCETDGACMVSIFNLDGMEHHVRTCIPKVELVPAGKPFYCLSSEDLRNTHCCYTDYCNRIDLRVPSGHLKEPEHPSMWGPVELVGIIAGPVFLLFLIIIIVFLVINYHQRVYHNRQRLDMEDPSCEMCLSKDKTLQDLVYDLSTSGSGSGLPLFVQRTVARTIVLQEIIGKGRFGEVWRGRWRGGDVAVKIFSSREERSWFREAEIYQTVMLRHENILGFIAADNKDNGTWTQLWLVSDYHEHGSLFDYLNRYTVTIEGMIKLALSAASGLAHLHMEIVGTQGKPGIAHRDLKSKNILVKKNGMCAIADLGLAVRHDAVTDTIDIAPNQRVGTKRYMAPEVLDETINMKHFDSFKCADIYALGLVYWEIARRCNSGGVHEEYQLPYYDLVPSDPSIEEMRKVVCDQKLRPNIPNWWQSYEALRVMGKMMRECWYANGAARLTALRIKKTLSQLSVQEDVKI
UniProt Q9UHD2, sequence (whole entry, looked up): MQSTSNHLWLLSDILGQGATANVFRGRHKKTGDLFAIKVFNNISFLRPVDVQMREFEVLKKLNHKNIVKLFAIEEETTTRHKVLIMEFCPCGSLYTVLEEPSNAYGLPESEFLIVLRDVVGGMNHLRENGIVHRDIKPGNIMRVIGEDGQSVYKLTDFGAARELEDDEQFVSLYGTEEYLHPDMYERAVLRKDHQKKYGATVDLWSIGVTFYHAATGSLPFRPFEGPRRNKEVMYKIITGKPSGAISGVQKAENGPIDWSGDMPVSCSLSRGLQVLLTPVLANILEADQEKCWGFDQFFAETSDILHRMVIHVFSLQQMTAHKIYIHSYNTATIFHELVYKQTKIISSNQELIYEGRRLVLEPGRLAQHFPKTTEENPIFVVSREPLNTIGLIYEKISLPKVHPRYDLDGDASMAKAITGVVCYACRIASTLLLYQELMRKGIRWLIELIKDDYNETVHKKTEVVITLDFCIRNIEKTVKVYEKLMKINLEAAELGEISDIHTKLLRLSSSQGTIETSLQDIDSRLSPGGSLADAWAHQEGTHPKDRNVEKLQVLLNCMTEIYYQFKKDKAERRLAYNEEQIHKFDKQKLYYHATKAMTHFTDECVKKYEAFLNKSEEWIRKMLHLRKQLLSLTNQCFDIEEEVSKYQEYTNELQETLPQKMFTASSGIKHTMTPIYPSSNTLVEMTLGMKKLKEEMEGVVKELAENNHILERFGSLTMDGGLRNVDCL
UniProt Q8WTQ7, sequence (whole entry, looked up): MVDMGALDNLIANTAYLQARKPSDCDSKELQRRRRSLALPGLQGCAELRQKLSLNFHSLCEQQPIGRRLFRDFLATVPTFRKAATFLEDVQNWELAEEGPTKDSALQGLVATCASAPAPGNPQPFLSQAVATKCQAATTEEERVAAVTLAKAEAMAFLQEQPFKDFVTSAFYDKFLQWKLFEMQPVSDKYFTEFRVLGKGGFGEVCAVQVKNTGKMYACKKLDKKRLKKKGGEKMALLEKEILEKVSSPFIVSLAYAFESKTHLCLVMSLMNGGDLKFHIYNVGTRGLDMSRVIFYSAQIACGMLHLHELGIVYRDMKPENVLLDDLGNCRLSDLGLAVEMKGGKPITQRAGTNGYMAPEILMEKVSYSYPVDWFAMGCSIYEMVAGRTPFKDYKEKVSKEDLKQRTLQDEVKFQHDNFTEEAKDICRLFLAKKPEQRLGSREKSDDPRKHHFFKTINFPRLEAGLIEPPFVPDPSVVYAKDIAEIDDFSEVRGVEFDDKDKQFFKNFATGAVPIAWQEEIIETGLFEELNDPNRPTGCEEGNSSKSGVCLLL

Block 1
Target: UBE2D3 UBC core domain (UniProt P61077)
Technique: yeast two-hybrid
Matrix: yeast
Setting: mostly zero background
Relative to: not given
Direction: higher = stronger interaction
B1: TRIM48 RING domain (UniProt Q8IWZ4); chain ISQVFQRELTCPICMNYFIDPVTIDCGHSFCRPCFYLNWQDIPILTQCFECIKTIQQRNLKT
B2: TRIM22 RING domain (UniProt Q8IYM9); chain KEVKMSPQEGQKRDVCEHHGKKLQIFCKEDGKVICWVCELSQEHQGHQTFRINEVVKECQEK
B3: RNF24 RING domain (UniProt Q9Y225); chain KVKELNLHELCAVCLEDFKPRDELGICPCKHAFHRKCLIKWLEVRKVCPLCNMPVLQLAQLH
B4: RNF181 RING domain (UniProt Q9P0P0); chain VIRGSQAELKCPVCLLEFEEEETAIEMPCHHLFHSSCILPWLSKTNSCPLCRYELPTDDDTY
Construct (chain): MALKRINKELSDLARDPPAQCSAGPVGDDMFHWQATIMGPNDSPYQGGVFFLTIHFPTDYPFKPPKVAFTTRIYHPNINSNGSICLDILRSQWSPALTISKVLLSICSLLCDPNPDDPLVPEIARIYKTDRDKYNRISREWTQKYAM
Molecule	lacZ reporter activity
B1 (TRIM48 RING domain)	0
KLWDINAHITCRLCSGYLIDATTVTECLHTFCRSCLVKYLEENNTCPTCRIVIHQSHPLQ (PCGF3 RING domain (UniProt Q3KNV8))	0
ALDRLEKLLRCSRCTNILREPVCLGGCEHIFCSNCVSDCIGTGCPVCYTPAWIQDLKI (BARD1 RING domain (UniProt Q99728))	0
MDDQGCPRCKTTKYRNPSLKLMVNVCGHTLCESCVDLLFVRGAGNCPECGTPLRKSNFRV (MNAT1 RING domain (UniProt P51948))	0
B2 (TRIM22 RING domain)	0
B3 (RNF24 RING domain)	0
B4 (RNF181 RING domain)	13500
NTAPSLTVPECAICLQTCVHPVSLPCKHVFCYLCVKGASWLGKRCALCRQEIPEDFLDK (RNF146 RING domain (UniProt Q9NTX7))	0

Block 2
Target: CCNB2, cyclin fold, Cln2 fusion (human)
Technique: yeast growth competition, sequencing
Matrix: yeast
Setting: strong parent motif
Relative to: not given
Direction: higher = stronger binding
Starting sequence: viral docking peptide; YKVKRRLVFGADD
Substitution	normalised enrichment score
YKVKRRLVFNADD [G10N]	1.79
YKVKRRLVFGYDD [A11Y]	1.66
YKVKRRLVFGAMD [D12M]	1.27
YKVKRRLVFGQDD [A11Q]	1.26
YKVKARLVFGADD [R5A]	0.441
YKVKKRLVFGADD [R5K]	0.908
YKVKRRVVFGADD [L7V]	0.255
YKVKRRTVFGADD [L7T]	0.0397

Block 3
SMILES: COC[C@H]1OC(=O)c2coc3c2[C@@]1(C)C1=C(C3=O)[C@@H]2CCC(=O)[C@@]2(C)C[C@H]1OC(C)=O
Read-out: enzyme activity
Mode: inhibitor
Tested at: 0.5 µM
Relative to: control
target	remaining activity [%]
ABL2 (Homo sapiens, UniProt P42684)	94.9
ULK2 (Homo sapiens, UniProt Q8IYT8)	101
LCK (Homo sapiens, UniProt P06239)	92.7
RPS6KA2 (Homo sapiens, UniProt Q15349)	94.8
TEK (Homo sapiens, UniProt Q02763)	90.9
MST1R (Homo sapiens, UniProt Q04912)	92.7
ACVR1B (Homo sapiens, UniProt P36896)	97.7
TBK1 (Homo sapiens, UniProt Q9UHD2)	92.6
CSNK1G2 (Homo sapiens, UniProt P78368)	85.8
ULK3 (Homo sapiens, UniProt Q6PHR2)	84.4
FGFR3 (Homo sapiens, UniProt P22607)	96.4
WEE1 (Homo sapiens, UniProt P30291)	96.9
ARAF (Homo sapiens, UniProt P10398)	82.5
GRK7 (Homo sapiens, UniProt Q8WTQ7)	90.4

Block 4
Target: HLA class I histocompatibility antigen, A alpha chain, allele A*25:01 (Homo sapiens, UniProt P04439)
Read-out: peptide-MHC binding
Form: peptide
Tested at: concentration not given
Molecule	binding
LSDAARLFL	inactive
RDRFKRTSF	inactive
GSSDFQVHFLK	inactive
RVGIYFGMK	inactive
FSFFMNENF	inactive
QLSLKMLSL	inactive
AMYDPQTYY	inactive
DEGFHAATV	inactive
